Measurements pooled from the literature.
Numbered parts are unrelated; each lists some results of a single study.
Chain of UniProt Q9UIK4 (whole entry, looked up): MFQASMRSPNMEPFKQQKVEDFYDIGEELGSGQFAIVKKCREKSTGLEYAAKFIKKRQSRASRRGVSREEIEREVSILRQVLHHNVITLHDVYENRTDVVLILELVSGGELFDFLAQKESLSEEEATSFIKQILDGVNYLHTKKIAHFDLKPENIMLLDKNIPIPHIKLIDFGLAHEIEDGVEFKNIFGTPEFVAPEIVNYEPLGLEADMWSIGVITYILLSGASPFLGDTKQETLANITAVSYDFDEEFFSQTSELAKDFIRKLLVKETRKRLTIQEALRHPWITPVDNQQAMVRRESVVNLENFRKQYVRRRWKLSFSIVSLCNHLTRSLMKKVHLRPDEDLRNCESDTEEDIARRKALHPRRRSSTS
Chain of UniProt Q96RR4 (whole entry, looked up): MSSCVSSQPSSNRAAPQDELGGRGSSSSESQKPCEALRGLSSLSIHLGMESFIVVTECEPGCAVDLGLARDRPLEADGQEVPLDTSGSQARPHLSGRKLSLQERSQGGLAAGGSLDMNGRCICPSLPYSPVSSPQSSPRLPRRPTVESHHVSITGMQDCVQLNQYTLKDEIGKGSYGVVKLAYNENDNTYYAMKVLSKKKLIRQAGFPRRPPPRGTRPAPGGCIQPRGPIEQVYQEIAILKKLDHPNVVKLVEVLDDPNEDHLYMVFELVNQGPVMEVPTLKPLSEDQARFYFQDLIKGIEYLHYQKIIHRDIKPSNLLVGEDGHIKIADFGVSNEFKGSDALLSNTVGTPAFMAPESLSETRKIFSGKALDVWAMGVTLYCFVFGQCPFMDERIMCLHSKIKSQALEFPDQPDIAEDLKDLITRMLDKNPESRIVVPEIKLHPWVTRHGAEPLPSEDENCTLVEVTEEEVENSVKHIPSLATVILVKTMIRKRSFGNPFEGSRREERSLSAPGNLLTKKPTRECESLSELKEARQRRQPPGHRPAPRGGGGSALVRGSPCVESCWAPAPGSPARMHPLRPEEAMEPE
Chain of UniProt P07948 (whole entry, looked up): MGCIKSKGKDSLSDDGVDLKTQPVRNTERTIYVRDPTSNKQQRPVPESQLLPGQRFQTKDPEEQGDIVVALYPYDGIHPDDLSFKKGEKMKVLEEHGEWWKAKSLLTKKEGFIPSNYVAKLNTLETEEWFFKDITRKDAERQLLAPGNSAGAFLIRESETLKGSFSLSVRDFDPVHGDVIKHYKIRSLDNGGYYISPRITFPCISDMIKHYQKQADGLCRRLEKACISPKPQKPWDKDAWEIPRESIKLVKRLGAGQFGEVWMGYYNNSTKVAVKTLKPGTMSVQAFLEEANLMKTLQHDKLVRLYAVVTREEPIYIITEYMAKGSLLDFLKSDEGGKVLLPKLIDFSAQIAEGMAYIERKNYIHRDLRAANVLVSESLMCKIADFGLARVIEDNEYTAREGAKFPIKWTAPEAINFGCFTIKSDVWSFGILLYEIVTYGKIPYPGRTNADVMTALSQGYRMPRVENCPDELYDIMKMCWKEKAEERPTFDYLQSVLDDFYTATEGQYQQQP
Chain of UniProt P11802 (whole entry, looked up): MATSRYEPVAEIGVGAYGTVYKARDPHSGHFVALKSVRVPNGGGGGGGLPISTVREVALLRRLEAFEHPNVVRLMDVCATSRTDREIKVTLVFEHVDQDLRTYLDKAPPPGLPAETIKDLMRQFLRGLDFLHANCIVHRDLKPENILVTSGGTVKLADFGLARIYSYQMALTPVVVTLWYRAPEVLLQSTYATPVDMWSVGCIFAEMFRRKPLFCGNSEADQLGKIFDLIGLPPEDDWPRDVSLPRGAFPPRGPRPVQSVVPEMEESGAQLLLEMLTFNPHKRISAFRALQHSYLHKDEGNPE
Chain of UniProt P53355 (whole entry, looked up): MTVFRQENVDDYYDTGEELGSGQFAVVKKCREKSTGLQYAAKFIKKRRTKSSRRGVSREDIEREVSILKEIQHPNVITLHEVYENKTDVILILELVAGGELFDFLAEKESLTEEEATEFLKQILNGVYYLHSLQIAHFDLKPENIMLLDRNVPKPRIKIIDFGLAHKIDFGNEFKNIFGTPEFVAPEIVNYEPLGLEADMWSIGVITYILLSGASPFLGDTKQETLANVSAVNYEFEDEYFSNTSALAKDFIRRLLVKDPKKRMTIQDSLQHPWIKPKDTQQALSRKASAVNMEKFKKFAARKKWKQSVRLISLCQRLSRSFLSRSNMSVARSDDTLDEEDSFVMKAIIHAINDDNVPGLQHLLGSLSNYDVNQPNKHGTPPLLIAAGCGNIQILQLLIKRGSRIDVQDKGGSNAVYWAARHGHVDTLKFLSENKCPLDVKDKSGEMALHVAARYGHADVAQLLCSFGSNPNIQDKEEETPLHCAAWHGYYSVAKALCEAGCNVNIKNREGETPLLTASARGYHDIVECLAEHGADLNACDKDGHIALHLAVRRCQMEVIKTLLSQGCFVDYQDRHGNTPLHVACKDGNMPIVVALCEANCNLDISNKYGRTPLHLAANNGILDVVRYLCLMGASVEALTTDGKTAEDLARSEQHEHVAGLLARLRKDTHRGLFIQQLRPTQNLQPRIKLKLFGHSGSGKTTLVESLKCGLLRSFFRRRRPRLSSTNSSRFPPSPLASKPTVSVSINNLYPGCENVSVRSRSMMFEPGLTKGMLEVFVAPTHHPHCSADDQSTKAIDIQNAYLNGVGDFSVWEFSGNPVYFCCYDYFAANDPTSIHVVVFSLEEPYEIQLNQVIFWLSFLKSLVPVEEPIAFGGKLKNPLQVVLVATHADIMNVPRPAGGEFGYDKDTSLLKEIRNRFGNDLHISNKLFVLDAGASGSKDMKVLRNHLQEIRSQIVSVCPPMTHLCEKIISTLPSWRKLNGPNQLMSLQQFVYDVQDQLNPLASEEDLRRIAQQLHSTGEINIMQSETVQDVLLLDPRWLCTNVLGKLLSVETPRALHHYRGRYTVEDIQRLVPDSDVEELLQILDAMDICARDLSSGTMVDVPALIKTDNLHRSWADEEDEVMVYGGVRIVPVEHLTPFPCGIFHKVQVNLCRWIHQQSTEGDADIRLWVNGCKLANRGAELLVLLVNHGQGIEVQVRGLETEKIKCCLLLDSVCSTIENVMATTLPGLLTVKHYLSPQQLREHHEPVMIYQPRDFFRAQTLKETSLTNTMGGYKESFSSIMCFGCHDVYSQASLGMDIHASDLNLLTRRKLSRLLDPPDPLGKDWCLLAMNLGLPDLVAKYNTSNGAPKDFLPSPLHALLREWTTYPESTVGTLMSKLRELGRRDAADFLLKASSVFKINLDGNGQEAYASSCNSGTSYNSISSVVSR
Chain of UniProt P37173 (whole entry, looked up): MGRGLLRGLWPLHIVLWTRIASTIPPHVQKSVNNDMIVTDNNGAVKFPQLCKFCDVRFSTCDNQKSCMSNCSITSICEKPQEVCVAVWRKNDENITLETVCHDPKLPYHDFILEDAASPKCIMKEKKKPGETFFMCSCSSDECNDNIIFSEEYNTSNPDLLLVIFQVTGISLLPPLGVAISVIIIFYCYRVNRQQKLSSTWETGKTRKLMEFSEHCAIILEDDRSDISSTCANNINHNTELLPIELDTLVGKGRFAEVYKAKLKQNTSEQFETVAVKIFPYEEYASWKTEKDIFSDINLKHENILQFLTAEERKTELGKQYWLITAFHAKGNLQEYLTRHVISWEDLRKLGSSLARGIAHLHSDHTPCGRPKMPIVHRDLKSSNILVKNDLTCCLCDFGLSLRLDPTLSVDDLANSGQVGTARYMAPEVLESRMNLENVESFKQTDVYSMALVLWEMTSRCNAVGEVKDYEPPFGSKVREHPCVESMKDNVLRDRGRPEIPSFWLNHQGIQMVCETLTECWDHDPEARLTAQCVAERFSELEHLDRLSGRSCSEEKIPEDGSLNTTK
Chain of UniProt Q99759 (whole entry, looked up): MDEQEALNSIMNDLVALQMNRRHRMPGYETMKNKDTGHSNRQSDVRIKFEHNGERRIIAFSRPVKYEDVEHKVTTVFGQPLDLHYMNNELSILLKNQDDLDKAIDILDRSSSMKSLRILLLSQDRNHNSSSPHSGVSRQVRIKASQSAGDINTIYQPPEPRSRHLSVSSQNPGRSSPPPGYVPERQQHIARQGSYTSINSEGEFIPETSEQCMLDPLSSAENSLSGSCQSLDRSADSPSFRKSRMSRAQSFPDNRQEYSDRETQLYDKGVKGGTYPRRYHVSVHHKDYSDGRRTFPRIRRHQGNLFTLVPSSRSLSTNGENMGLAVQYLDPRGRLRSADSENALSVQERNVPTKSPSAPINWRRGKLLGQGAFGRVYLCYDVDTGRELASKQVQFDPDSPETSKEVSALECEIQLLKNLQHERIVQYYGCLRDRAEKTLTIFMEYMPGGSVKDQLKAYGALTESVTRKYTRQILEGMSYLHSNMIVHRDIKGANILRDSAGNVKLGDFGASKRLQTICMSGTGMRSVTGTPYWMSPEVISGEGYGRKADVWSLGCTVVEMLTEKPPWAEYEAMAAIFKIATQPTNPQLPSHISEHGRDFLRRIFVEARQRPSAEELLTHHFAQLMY

Set 1
SMILES: N/C(=N\[N+](=O)[O-])N/N=C\c1ccc(-c2cccc([N+](=O)[O-])c2)o1
Effect on: enzyme activity
Mode: inhibitor
Concentration: 0.5 µM
Baseline: control
| target | remaining activity [%] |
| --- | --- |
| Calcium/calmodulin-dependent protein kinase type II subunit delta (CAMK2D, Homo sapiens, UniProt Q13557) | 90.1 |
| Death-associated protein kinase 1 (DAPK1, Homo sapiens, UniProt P53355) | 97.8 |
| Mitogen-activated protein kinase 9 (MAPK9, Homo sapiens, UniProt P45984) | 111 |
| Calcium/calmodulin-dependent protein kinase kinase 2 (CAMKK2, Homo sapiens, UniProt Q96RR4) | 114 |
| Mitogen-activated protein kinase kinase kinase 3 (MAP3K3, Homo sapiens, UniProt Q99759) | 93.8 |
| Tyrosine-protein kinase Lyn, isoform B (LYN, Homo sapiens, UniProt P07948) | 99.4 |
| Inhibitor of nuclear factor kappa-B kinase subunit epsilon (IKBKE, Homo sapiens, UniProt Q14164) | 101 |
| Death-associated protein kinase 2 (DAPK2, Homo sapiens, UniProt Q9UIK4) | 80.1 |
| Serine/threonine-protein kinase 10 (STK10, Homo sapiens, UniProt O94804) | 99.6 |
| TGF-beta receptor type-2 (TGFBR2, Homo sapiens, UniProt P37173) | 123 |
| Cyclin-dependent kinase 4, with cyclin D1 (CDK4, Homo sapiens, UniProt P11802) | 96.6 |
| Protein kinase C beta type, isoform beta-I (PRKCB, Homo sapiens, UniProt P05771) | 88.9 |

Set 2
Target: Delta-type opioid receptor (OPRD1, Homo sapiens, UniProt P41143)
Chain of UniProt P41143 (whole entry, looked up): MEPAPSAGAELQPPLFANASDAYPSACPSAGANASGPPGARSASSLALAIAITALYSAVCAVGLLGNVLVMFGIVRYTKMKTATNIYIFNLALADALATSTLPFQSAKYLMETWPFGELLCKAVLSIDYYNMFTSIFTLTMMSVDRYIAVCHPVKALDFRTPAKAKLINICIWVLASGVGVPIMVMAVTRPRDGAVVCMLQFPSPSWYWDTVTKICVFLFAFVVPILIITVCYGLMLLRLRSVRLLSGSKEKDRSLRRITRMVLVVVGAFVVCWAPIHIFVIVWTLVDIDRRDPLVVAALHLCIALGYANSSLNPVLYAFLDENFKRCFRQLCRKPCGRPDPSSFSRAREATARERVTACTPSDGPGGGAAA
Effect on: ligand displacement
Concentration: 10 µM
| Compound | inhibition |
| --- | --- |
| Cc1c(N2CCNCC2)nc2ccc(Br)cc2c1C(=O)NC[C@H](CCC(=O)O)c1ccccc1Cl | 36% |
| c1ccc(N2CCN(Cc3nc4ccccc4[nH]3)CC2)nc1 | 15.3% |
| CC(=O)Nc1ncc(CN2CCC[C@H](Cc3cc(C)nc(C)c3)C2)s1 | 11.8% |
| C[C@H](c1ccc(F)cc1)N(Cc1cccc(C(=O)O)c1)C(=O)c1cnc2ccccc2c1 | -1.72% |
| CCC(=NO)C(C)=Cc1ccc(F)c(C)c1 | 2.53% |
| CCc1ccccc1C(=O)Nc1n[nH]c2c(C)c(F)c(C3C(C#N)=C(C)N(C)C(C)=C3C#N)cc12 | 20.5% |
| Cc1c(NC(=O)c2cc(C(N)=O)nc3cc(F)ccc23)c(C(F)(F)F)nn1Cc1ccc(C#N)cc1 | -13.1% |
| CN1CCN(c2ccnc(NCCc3ccccc3)n2)CC1 | 8.02% |
| CN(C)CC#Cc1ccc(OCCCc2sc(N3CCc4cccc(C(=O)Nc5nc6ccccc6s5)c4C3)nc2C(=O)O)c(F)c1 | 54.6% |
| Nc1nc(NCc2ccccc2)nc(-c2cccc(CO)c2)n1 | 9.2% |
| CNC(=O)Nc1ccc2c(c1)CC[C@]21OC(=O)N(CC(=O)N(Cc2ccc(F)cc2)[C@@H](C)C(F)(F)F)C1=O | -2.53% |
| CN(C)C(=O)c1sc2nc(N3CCC(S(C)(=O)=O)CC3)cc(C(F)(F)F)c2c1N | 8.58% |
| CN(C)c1ncnc(-c2ccc3nc(Nc4cc(CN5CCN(C(=O)CC(F)(F)F)CC5)ccn4)[nH]c3c2)c1Cl | 2.06% |
| O=C(NCCCC1CCCCC1)c1ccc(CNC(=O)c2cnn(-c3ccccc3)c2C(F)(F)F)cc1 | 12.9% |
| CC(=O)N1CCC(c2ccc(C(=O)NC3=NCCN3)cc2C(F)(F)F)CC1 | -0.82% |
| CO[C@H]1CC[C@H](CNc2ccc(S(=O)(=O)NC(=O)c3ccc(N4CCN(CC5=C(c6ccc(Cl)cc6)CC(C)(C)CC5)CC4)cc3Oc3cnc4[nH]ccc4c3)cc2[N+](=O)[O-])CC1 | 5.68% |
| c1ccc(C2CCN(c3cnc4c(N5CCOCC5)nccn34)CC2)cc1 | 2.73% |
| O=S(=O)(NC1CCC(c2cc(F)ccc2F)(S(=O)(=O)c2ccc(Cl)cc2)CC1)C(F)(F)F (stereo not drawn) | 20% |
| COCCOc1nc(-c2ccc(Cl)nc2)nc2c1CN(C(=O)c1ncn3ccccc13)CC2 | 6.52% |
| CC1=C(C#N)C(c2ccc3[nH]nc(C)c3c2)C(C#N)=C(C)N1 | 16.9% |
| N#CC1(c2ccccn2)CCN(Cc2cc(C(=O)N3CCCC3)c(=O)n3ccccc23)CC1 | -0.84% |
| CNC(=N)NCCC[C@H](NC(=O)[C@H](CC(C)C)NC(=O)NNC(=O)[C@H](Cc1ccccc1)NC(=O)[C@H](CO)NC(=O)[C@H](CC(N)=O)NC(=O)[C@@H](Cc1ccncc1)NC(=O)[C@H](N)Cc1ccc(O)cc1)C(=O)N[C@@H](Cc1ccccc1)C(N)=O | -32.3% |
| Cc1noc([C@H]2C[C@@H](c3ccc(C(F)(F)F)cc3)CN(C(=O)N3CCS(=O)(=O)C3)C2)n1 | -0.62% |
| O=C(NS(=O)(=O)c1ccc(NCC2CCOCC2)c([N+](=O)[O-])c1)c1ccc(N2CCN(Cc3ccc(C(F)(F)F)cc3-c3ccc(Cl)cc3)CC2)cc1Oc1cnc2[nH]ccc2c1 | -3.92% |
| Cc1ccc(-c2cnc([C@@]3(O)CC[C@H](C(=O)O)C(C)(C)C3)s2)cc1Nc1cccc(C(F)(F)F)n1 | 25.1% |

Set 3
Cell line: HEK-293T
Effect on: pseudovirus infection
Method: FDA-approved drug library counter-screen
Organism: VSV pseudotyped with VSV-G
Concentration: 10 µM
Time: 16 h
Baseline: vehicle-treated
| Structure (SMILES) | GFP-positive cells [%] |
| --- | --- |
| Cc1ccc(C(=O)c2cc(O)c(O)c([N+](=O)[O-])c2)cc1 | 98.3 |
| CC(=O)NS(=O)(=O)c1ccc(N)cc1 | 129 |
| CC(=O)OCC(=O)[C@@]1(O)CC[C@H]2[C@@H]3CCC4=CC(=O)CC[C@]4(C)[C@H]3C(=O)C[C@@]21C | 133 |
| N[C@@H](Cc1ccc(O)c(O)c1)C(=O)O | 84 |
| Cc1ccc(C)c(OCCCC(C)(C)C(=O)O)c1 | 104 |
| CN(C)CCCN1c2ccccc2Sc2ccccc21 | 111 |
| C[N+]12CCC(CC1)C(OC(=O)C(O)(c1ccccc1)c1ccccc1)C2 (stereo not drawn) | 132 |
| C[C@@H]1O[C@@H](OC[C@H]2O[C@@H](Oc3c(-c4ccc(O)c(O)c4)oc4cc(O)cc(O)c4c3=O)[C@H](O)[C@@H](O)[C@@H]2O)[C@H](O)[C@H](O)[C@H]1O | 83.1 |
| CCCC1O[C@@H]2C[C@H]3[C@@H]4CCC5=CC(=O)C=C[C@]5(C)[C@H]4[C@@H](O)C[C@]3(C)[C@]2(C(=O)CO)O1 (stereo partly drawn) | 128 |
| C[C@]12COC(=O)C[C@@H]1CC[C@@H]1[C@@H]2CC[C@@]2(C)[C@H]1CC[C@]2(C)O | 90.9 |
| NS(=O)(=O)Cc1noc2ccccc12 | 86 |
| Cc1cccc(C)c1NC(=O)C1CCCCN1C (stereo not drawn) | 88.6 |
| CN(C)[C@@H]1C(O)=C(C(N)=O)C(=O)[C@@]2(O)C(O)=C3C(=O)c4c(O)cccc4[C@@](C)(O)[C@H]3C[C@@H]12 | 81.8 |
| CCCNC(C)C(=O)Nc1c(C)csc1C(=O)OC (stereo not drawn) | 130 |
| CC1(C)S[C@@H]2[C@H](NC(=O)[C@H](NC(=O)N3CCNC3=O)c3ccccc3)C(=O)N2[C@H]1C(=O)O | 143 |
| COc1ccc2c(c1)c(CC(=O)O)c(C)n2C(=O)c1ccc(Cl)cc1 | 116 |
| CC(=O)OCC(=O)[C@@]12OC(C)(C)O[C@@H]1C[C@H]1[C@@H]3C[C@H](F)C4=CC(=O)C=C[C@]4(C)[C@@]3(F)[C@@H](O)C[C@@]12C | 108 |
| C#CCN(C)Cc1ccccc1 | 125 |
| COC(c1ccccc1)(c1ccccc1)[C@H](Oc1nc(C)cc(C)n1)C(=O)O | 104 |
| Cc1nc(-c2ccc(OCC(C)C)c(C#N)c2)sc1C(=O)O | 99.6 |
| COc1cnc(NS(=O)(=O)c2ccc(N)cc2)nc1 | 88.9 |
| CC[C@H]1OC(=O)[C@H](C)[C@@H](O[C@H]2C[C@@](C)(OC)[C@@H](O)[C@H](C)O2)[C@H](C)[C@@H](O[C@@H]2O[C@H](C)C[C@H](N(C)C)[C@H]2O)[C@](C)(O)C[C@@H](C)CN(C)[C@H](C)[C@@H](O)[C@]1(C)O | 101 |
| C[C@H]1C[C@H]2[C@@H]3CCC4=CC(=O)C=C[C@]4(C)[C@@]3(F)[C@@H](O)C[C@]2(C)[C@@]1(O)C(=O)CO | 129 |
| COc1ccnc(C[S+]([O-])c2nc3ccc(OC(F)F)cc3[nH]2)c1OC (stereo not drawn) | 102 |
| Cc1noc(NS(=O)(=O)c2ccc(N)cc2)c1C | 90.6 |

Other studies, line by line
| SMILES | target | concentration | endpoint | result |
| --- | --- | --- | --- | --- |
| Cc1nc(Nc2ncc(C(=O)Nc3c(C)cccc3Cl)s2)cc(N2CCN(CCO)CC2)n1 | Leukocyte tyrosine kinase receptor (LTK, Homo sapiens, UniProt P29376) | 1 µM | inhibition | < 50% |

Excerpt of the above (set 3):
| Structure (SMILES) | GFP-positive cells [%] |
| --- | --- |
| Cc1nc(-c2ccc(OCC(C)C)c(C#N)c2)sc1C(=O)O | 99.6 |
| COc1ccc2c(c1)c(CC(=O)O)c(C)n2C(=O)c1ccc(Cl)cc1 | 116 |
| CN(C)CCCN1c2ccccc2Sc2ccccc21 | 111 |
| CC[C@H]1OC(=O)[C@H](C)[C@@H](O[C@H]2C[C@@](C)(OC)[C@@H](O)[C@H](C)O2)[C@H](C)[C@@H](O[C@@H]2O[C@H](C)C[C@H](N(C)C)[C@H]2O)[C@](C)(O)C[C@@H](C)CN(C)[C@H](C)[C@@H](O)[C@]1(C)O | 101 |
| Cc1noc(NS(=O)(=O)c2ccc(N)cc2)c1C | 90.6 |
| CC(=O)OCC(=O)[C@@]1(O)CC[C@H]2[C@@H]3CCC4=CC(=O)CC[C@]4(C)[C@H]3C(=O)C[C@@]21C | 133 |
| CC(=O)NS(=O)(=O)c1ccc(N)cc1 | 129 |
| CC1(C)S[C@@H]2[C@H](NC(=O)[C@H](NC(=O)N3CCNC3=O)c3ccccc3)C(=O)N2[C@H]1C(=O)O | 143 |
| Cc1cccc(C)c1NC(=O)C1CCCCN1C (stereo not drawn) | 88.6 |
